Measurements collected from several papers.
± gives the spread as reported.

For `O=C(NCC1OC2CCC=CCCC2O1)c1ccc(COCCOCCOCC[18F])cc1` (centres unmarked), the tissue uptake was 12.6 ± 0.4 %ID/g (healthy female BALB/c nude mice, large intestine; intravenous, 7.4 MBq per mouse, 120 min).
The tissue uptake of `N#C[C@@H]1CCCN1C(=O)CNC(=O)c1ccnc2ccc(OCCCN3CCN(C(=O)CCc4ccc(O)c(CN5CCN6CC(=O)[O][Al-]([18F])([O]C(=O)C5)[O]c5ccc(CCC(=O)N7CCN(CCCOc8ccc9nccc(C(=O)NCC(=O)N%10CCC[C@H]%10C#N)c9c8)CC7)cc5C6)c4)CC3)cc12` (some centres unmarked) is reported as 7.37 ± 1.11 %ID/g (BALB/c nude mice, U-87 MG xenograft, liver; 1 h, blocking, added: DOTA-FAPI-04 40 nmol/mouse co-injected).
`CCCC[C@H](NC(=O)CNC(=O)CNC(=O)[C@H](CCCCNC(=O)C(C)c1ccc(CC(C)C)cc1)NC(=O)CN1CCN(CC(=O)O)CCN(CC(=O)O)CCN(CC(=O)O)CC1)C(=O)N[C@H]1CC(=O)NCCCC[C@@H](C(N)=O)NC(=O)[C@H](Cc2c[nH]c3ccccc23)NC(=O)[C@H](CCCNC(=N)N)NC(=O)[C@@H](Cc2ccccc2)NC(=O)[C@H](Cc2c[nH]cn2)NC1=O` (some centres unmarked) [lutetium-177 labelled] gave a tissue uptake of 0.8 ± 0.11 %ID/g (C57 mice, tumour-bearing, heart; 2 h).
`O=C(NCC1OC2CCC=CCCC2O1)c1ccc([18F])nc1` (centres unmarked) gave a tissue uptake of 0.4 ± 0.03 %ID/g (healthy female BALB/c nude mice, heart; intravenous, 7.4 MBq per mouse, 120 min).
For `CCCC[C@H](NC(=O)COCCOCCNC(=O)CN1CCN(CC(=O)O)CCN(CC(=O)O)CC1)C(=O)N[C@H]1CC(=O)NCCCC[C@@H](C(N)=O)NC(=O)[C@H](Cc2c[nH]c3ccccc23)NC(=O)[C@H](CCCNC(=N)N)NC(=O)[C@@H](Cc2ccccc2)NC(=O)[C@H](Cc2c[nH]cn2)NC1=O` [fluorine-18 labelled], the tissue uptake was 0.3 ± 0.36 %ID/g (C57 mice B16-F10 melanoma, skin; intravenous, 0.37 MBq, 2 h).
For `CCCC[C@H](NC(=O)CNC(=O)CNC(=O)[C@H](CCCCNC(=O)[C@H](CC(=O)O)NC(=O)C(C)c1ccc(CC(C)C)cc1)NC(=O)CN1CCN(CC(=O)O)CCN(CC(=O)O)CCN(CC(=O)O)CC1)C(=O)N[C@H]1CC(=O)NCCCC[C@@H](C(N)=O)NC(=O)[C@H](Cc2c[nH]c3ccccc23)NC(=O)[C@H](CCCNC(=N)N)NC(=O)[C@@H](Cc2ccccc2)NC(=O)[C@H](Cc2c[nH]cn2)NC1=O` (some centres unmarked) [lutetium-177 labelled], the tissue uptake was 0.31 ± 0.03 %ID/g (C57 mice, tumour-bearing, spleen; intravenous, 0.037 MBq, 24 h).
With `Cc1cc(C)n(CCN(CCN)CCCCCCNC(=O)[C@@H](N)Cc2c[nH]cn2)n1.[99Tc+].[C-]#[O+].[C-]#[O+].[C-]#[O+]` the tissue uptake was 0.39 ± 0.08 %IA/g (BALB/c nude mice, A549 xenograft, lung; intravenous, 24 h).
`CC(C)C[C@H](NC(=O)[C@@H](CCCCNC(=O)[C@@H](Cc1ccccc1)NC(=O)CCCCCCCNC(=O)CN1CCN(CC(=O)O)CCN(CC(=O)O)CCN(CC(=O)O)CC1)NC(=O)[C@H](Cc1ccc(O)cc1)NC(=O)[C@H](CO)NC(=O)[C@H](Cc1c[nH]c2ccccc12)NC(=O)[C@H](Cc1c[nH]cn1)NC(=O)[C@@H]1CCC(=O)N1)C(=O)N[C@@H](CCCNC(=N)N)C(=O)N1CCC[C@H]1C(=O)NCC(N)=O` [indium-111 labelled] gave a tissue uptake of 0.53 ± 0.1 %ID/g (biodistribution; male athymic nude mice, DU-145 prostate cancer xenograft, muscle; intravenous, 0.037 MBq, 0.5 h post-injection).
For `N#C[C@@H]1CCCN1C(=O)CNC(=O)c1ccnc2ccc(OCCCN3CCN(C(=O)CCc4ccc5c(c4)CN4CCN(Cc6cc(CCC(=O)O)ccc6O)CC(=O)[O][Al-]([18F])([O]C(=O)C4)[O]5)CC3)cc12` (some centres unmarked), the tissue uptake was 13.2 ± 2.48 %ID/g (BALB/c nude mice, U-87 MG xenograft, bone; 1 h, blocking, added: DOTA-FAPI-04 40 nmol/mouse co-injected).
`COc1ccc(Nc2nc(Nc3ccc(OCCOCCOCC[18F])cc3)ncc2Br)cc1` has a tissue uptake of 1.52 ± 0.19 %ID (ICR mice, S180 tumour, stomach; intravenous, 370 kBq, 120 min).
`O=C([O-])CN1CCN(CC(=O)[O-])CCN(CC(=O)NC[C@H]2CC[C@H](C(=O)N[C@H](Cc3cnc4ccccc4c3)C(=O)NCCCC[C@H](NC(=O)N[C@@H](CCC(=O)O)C(=O)O)C(=O)O)CC2)CCN(CC(=O)[O-])CC1.[64Cu+2]` has a tissue uptake of 14.9 %ID/g (ex vivo gamma counting; 22Rv1 tumour-bearing mice, tumor; intravenous, 0.74 MBq, 2 h post-injection).
For `O=C(O)CCCOc1ccc([18F])cc1-c1cc(-c2ccccc2C(F)(F)F)n(-c2ccccc2)n1`, the tissue uptake was 0.07 ± 0.04 %ID/g (mice, bladder and urine; intravenous, 5 min).
`COc1ccc(Nc2nc(Nc3ccc(OCCOCC[18F])cc3)ncc2Br)cc1` has a tissue uptake of 2.68 ± 0.28 %ID/g (ICR mice, S180 tumour-bearing, spleen; intravenous, 370 kBq, 30 min).
With `CCCC[C@H](NC(=O)CCCCCCCNC(=O)CN1CCN(CC(=O)O)CCN(CC(=O)O)CC1)C(=O)N[C@H]1CC(=O)NCCCC[C@@H](C(N)=O)NC(=O)[C@H](Cc2c[nH]c3ccccc23)NC(=O)[C@H](CCCNC(=N)N)NC(=O)[C@@H](Cc2ccccc2)NC(=O)[C@H](Cc2c[nH]cn2)NC1=O` [fluorine-18 labelled] the tissue uptake was 1.67 ± 0.48 %ID/g (C57 mice B16-F10 melanoma, lung; intravenous, 0.37 MBq, 1 h).

Some of these lines once more:
For `CCCC[C@H](NC(=O)CNC(=O)CNC(=O)[C@H](CCCCNC(=O)[C@H](CC(=O)O)NC(=O)C(C)c1ccc(CC(C)C)cc1)NC(=O)CN1CCN(CC(=O)O)CCN(CC(=O)O)CCN(CC(=O)O)CC1)C(=O)N[C@H]1CC(=O)NCCCC[C@@H](C(N)=O)NC(=O)[C@H](Cc2c[nH]c3ccccc23)NC(=O)[C@H](CCCNC(=N)N)NC(=O)[C@@H](Cc2ccccc2)NC(=O)[C@H](Cc2c[nH]cn2)NC1=O` (some centres unmarked) [lutetium-177 labelled], the tissue uptake was 0.31 ± 0.03 %ID/g (C57 mice, tumour-bearing, spleen; intravenous, 0.037 MBq, 24 h).
With `Cc1cc(C)n(CCN(CCN)CCCCCCNC(=O)[C@@H](N)Cc2c[nH]cn2)n1.[99Tc+].[C-]#[O+].[C-]#[O+].[C-]#[O+]` the tissue uptake was 0.39 ± 0.08 %IA/g (BALB/c nude mice, A549 xenograft, lung; intravenous, 24 h).
